Results gathered from unrelated publications.
Every numbered part comes from another study and shows a few of its results, in no order.
UniProt Q04912, sequence (whole entry, looked up): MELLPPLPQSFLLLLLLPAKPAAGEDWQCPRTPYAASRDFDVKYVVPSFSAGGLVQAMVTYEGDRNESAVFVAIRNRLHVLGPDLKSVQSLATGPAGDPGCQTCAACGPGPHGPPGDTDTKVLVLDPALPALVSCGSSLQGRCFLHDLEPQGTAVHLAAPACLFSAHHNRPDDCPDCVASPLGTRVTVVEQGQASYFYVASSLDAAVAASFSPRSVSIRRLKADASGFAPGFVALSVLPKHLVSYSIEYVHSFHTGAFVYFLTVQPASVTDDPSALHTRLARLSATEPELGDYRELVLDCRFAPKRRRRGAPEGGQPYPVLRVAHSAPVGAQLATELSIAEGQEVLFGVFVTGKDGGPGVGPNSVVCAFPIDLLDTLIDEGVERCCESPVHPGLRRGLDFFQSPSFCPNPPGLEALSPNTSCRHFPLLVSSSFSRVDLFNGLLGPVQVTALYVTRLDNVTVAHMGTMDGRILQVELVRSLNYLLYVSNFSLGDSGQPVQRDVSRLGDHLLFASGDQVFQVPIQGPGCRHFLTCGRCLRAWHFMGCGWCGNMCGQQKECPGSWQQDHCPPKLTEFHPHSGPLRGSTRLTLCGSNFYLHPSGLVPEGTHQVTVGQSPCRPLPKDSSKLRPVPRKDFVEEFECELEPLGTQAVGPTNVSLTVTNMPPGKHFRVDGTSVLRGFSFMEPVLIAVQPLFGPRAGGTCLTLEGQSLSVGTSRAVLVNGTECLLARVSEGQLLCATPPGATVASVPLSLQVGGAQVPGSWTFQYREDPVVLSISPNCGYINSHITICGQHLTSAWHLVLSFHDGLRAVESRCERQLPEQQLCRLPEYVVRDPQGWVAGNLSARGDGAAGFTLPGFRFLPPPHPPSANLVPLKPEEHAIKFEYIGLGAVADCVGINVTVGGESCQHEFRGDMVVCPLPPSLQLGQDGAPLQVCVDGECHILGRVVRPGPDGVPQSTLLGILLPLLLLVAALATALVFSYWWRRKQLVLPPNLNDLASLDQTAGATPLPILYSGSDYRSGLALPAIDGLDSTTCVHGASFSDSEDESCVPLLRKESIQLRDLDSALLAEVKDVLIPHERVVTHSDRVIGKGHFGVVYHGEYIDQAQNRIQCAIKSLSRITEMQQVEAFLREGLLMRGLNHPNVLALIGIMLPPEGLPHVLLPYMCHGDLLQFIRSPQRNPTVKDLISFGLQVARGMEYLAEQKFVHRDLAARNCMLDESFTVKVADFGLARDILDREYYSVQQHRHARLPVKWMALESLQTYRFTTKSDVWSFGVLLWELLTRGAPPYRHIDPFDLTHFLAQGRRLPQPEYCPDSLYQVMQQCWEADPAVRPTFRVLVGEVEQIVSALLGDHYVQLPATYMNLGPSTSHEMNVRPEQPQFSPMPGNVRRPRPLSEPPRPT
UniProt Q00537, sequence (whole entry, looked up): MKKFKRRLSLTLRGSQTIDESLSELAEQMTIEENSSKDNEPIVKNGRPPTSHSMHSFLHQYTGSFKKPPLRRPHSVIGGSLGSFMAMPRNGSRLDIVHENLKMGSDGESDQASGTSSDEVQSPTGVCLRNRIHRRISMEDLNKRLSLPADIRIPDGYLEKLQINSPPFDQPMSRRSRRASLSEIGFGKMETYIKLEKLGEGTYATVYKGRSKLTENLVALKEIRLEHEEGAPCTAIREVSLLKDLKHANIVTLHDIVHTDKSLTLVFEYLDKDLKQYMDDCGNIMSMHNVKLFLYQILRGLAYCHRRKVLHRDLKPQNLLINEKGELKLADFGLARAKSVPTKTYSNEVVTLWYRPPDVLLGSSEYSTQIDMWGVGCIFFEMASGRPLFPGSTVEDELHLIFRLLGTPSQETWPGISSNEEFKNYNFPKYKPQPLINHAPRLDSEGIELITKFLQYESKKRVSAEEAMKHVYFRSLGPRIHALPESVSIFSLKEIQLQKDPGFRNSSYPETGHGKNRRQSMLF
UniProt Q12866, sequence (whole entry, looked up): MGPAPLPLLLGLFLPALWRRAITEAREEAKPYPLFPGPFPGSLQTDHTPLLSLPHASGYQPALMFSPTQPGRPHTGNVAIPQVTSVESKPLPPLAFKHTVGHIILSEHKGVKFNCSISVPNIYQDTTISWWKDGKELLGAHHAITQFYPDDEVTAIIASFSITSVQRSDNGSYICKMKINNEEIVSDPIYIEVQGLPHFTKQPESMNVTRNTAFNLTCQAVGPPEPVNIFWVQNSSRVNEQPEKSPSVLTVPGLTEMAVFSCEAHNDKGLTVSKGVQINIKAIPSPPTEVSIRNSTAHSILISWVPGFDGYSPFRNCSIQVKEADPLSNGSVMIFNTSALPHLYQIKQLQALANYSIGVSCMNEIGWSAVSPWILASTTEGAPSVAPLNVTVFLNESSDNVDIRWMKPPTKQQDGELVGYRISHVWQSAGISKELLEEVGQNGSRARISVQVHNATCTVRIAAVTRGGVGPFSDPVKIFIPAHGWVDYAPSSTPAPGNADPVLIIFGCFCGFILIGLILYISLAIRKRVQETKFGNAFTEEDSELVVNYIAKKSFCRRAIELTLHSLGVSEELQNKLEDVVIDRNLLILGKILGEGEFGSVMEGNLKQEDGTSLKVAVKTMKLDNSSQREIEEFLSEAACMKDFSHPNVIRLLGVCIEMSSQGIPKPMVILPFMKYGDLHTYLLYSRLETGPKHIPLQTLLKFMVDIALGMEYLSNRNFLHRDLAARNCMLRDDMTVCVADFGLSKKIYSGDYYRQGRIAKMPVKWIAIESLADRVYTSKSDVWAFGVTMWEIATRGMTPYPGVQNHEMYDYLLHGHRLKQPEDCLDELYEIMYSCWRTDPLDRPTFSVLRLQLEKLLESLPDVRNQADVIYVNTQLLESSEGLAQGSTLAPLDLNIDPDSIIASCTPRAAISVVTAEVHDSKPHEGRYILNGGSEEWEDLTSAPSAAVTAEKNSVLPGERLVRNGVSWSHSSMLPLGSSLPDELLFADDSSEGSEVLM
UniProt Q8N5S9, sequence (whole entry, looked up): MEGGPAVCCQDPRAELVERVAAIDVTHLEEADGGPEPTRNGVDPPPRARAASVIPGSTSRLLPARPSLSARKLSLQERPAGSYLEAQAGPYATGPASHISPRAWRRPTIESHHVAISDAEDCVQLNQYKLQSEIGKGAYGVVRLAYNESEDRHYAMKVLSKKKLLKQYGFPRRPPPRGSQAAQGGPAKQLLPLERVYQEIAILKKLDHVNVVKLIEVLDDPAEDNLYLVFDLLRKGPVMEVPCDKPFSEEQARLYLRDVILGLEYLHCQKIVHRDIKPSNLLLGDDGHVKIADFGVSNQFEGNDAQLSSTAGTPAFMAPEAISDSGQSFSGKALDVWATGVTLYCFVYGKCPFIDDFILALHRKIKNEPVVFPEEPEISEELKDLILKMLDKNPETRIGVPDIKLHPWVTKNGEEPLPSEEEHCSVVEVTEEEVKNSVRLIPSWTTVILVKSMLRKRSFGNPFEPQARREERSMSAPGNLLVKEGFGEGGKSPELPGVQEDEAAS
UniProt Q96J92, sequence (whole entry, looked up): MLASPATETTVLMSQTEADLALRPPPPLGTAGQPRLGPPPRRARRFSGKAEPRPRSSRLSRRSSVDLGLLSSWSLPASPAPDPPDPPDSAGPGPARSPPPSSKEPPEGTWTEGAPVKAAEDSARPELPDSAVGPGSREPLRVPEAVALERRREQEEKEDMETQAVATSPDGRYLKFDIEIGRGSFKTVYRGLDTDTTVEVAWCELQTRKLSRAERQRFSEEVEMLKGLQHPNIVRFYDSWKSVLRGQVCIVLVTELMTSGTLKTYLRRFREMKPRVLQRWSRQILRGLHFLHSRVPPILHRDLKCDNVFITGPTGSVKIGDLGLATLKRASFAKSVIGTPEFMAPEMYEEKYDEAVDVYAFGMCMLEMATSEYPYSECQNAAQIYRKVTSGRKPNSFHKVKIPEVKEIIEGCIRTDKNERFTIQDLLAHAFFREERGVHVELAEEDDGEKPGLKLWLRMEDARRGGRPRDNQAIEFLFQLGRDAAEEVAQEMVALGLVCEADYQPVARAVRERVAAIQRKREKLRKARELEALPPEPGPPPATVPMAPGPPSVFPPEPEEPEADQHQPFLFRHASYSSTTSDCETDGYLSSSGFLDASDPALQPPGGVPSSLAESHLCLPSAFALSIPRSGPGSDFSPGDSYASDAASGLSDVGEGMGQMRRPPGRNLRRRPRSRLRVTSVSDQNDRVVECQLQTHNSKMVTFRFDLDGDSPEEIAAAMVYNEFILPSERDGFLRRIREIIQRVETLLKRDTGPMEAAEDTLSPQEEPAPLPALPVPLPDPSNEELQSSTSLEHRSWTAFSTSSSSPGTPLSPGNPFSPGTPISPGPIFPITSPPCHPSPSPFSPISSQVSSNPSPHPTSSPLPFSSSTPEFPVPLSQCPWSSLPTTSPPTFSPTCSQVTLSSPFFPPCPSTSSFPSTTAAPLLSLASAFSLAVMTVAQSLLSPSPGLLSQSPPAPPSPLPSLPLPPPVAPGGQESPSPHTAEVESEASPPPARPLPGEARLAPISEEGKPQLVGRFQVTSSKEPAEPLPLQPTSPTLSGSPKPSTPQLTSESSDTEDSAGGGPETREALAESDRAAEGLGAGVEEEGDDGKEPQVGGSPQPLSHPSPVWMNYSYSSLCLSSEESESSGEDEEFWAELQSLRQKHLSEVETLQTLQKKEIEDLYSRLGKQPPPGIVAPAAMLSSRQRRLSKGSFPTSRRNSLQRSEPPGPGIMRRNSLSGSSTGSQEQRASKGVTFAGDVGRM

Series 1 — cell line: HaCaT; concentration: 100 µM; time: 36 h
`Cc1[nH]c(=O)c(C#N)cc1-c1ccncc1` gave a viability of 75.9%.
For `CN/C(=N/CCSCc1nc[nH]c1C)NC#N`, the viability was 97.8%.
For `CC(=O)OCC(=O)[C@@]12OC(C)(C)O[C@@H]1C[C@H]1[C@@H]3C[C@H](F)C4=CC(=O)C=C[C@]4(C)[C@@]3(F)[C@@H](O)C[C@@]12C`, the viability was 97.2%.
For `CCOC(=O)C1=C[C@]2(CC)CCCN3CCc4c(n1c1ccccc41)[C@@H]32`, the viability was 76.4%.
For `N[C@@H](CC(=O)N1CCn2c(nnc2C(F)(F)F)C1)Cc1cc(F)c(F)cc1F`, the viability was 81.9%.
With `CC1=C(C(=O)OC(C)C)C(c2cccc([N+](=O)[O-])c2)C(C(=O)OC2CN(C(c3ccccc3)c3ccccc3)C2)=C(N)N1` (stereo not shown) the viability was 12.5%.
`COc1ccc(C(=O)NCc2ccc(OCCN(C)C)cc2)cc1OC` gave a viability of 45.5%.

Series 2 — effect on: enzyme activity; action: inhibitor; concentration: 0.5 µM; reference: control
Target: Cyclin-dependent kinase 6, with cyclin D1 (CDK6, Homo sapiens, UniProt Q00534)
UniProt Q00534, sequence (whole entry, looked up): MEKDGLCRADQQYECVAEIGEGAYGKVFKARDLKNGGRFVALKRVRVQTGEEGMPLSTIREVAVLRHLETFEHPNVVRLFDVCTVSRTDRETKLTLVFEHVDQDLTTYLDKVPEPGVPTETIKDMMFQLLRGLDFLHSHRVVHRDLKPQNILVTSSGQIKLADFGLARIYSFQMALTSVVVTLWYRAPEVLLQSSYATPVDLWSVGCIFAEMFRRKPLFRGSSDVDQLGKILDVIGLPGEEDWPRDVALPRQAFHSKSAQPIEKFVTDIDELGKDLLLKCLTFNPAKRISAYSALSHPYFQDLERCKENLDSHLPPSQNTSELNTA
`O=c1c2ccccc2[nH]c(=S)n1CCN1CCC(=C(c2ccc(F)cc2)c2ccc(F)cc2)CC1` has a remaining activity of 98.7%.
`Oc1ccc(-c2nc(-c3ccncc3)c(-c3ccc(F)cc3)[nH]2)cc1` has a remaining activity of 97.6%.
With `O=C1NC(=O)C(c2cn(CCCO)c3ncccc23)=C1c1cnccn1` the remaining activity was 83.4%.
With `CN(C)c1ccc(C=C2C(=O)Nc3ccccc32)cc1` the remaining activity was 101%.
`OCC(O)CCON=C1C(c2c(O)[nH]c3ccccc23)=Nc2ccccc21` (stereo not shown) gave a remaining activity of 27.7%.
For `COc1ccc(OC)c2c(=S)c3ccccc3[nH]c12`, the remaining activity was 102%.
For `CO[C@H]1C[C@@H]2CC[C@@H](C)[C@@](O)(O2)C(=O)C(=O)N2CCCC[C@H]2C(=O)O[C@H]([C@H](C)C[C@@H]2CC[C@@H](O)[C@H](OC)C2)CC(=O)[C@H](C)/C=C(\C)[C@@H](O)[C@@H](OC)C(=O)[C@H](C)C[C@H](C)/C=C/C=C/C=C/1C`, the remaining activity was 99.8%.
For `Cc1ccc(NC(=O)c2ccc(CN3CCN(C)CC3)cc2)cc1Nc1nc(-c2cccnc2)cs1`, the remaining activity was 98%.
The remaining activity of `C#Cc1cccc(Nc2ncnc3cc(OCCOC)c(OCCOC)cc23)c1` is reported as 98.7%.
The remaining activity of `Nc1[nH]nc2nc3ccccc3nc12` is reported as 105%.
`Cc1nc(-c2ccccc2)c(-c2ccncc2)o1` has a remaining activity of 101%.
`Cn1sc(=O)n(Cc2ccccc2)c1=O` gave a remaining activity of 106%.
For `Nc1ccc2ncnc(NCCc3ccc(Oc4ccccc4)cc3)c2c1`, the remaining activity was 101%.
`Cc1ccc(Nc2nccc(N(C)c3ccc4c(C)n(C)nc4c3)n2)cc1S(N)(=O)=O` gave a remaining activity of 96.5%.
`O=C(Nc1cccc(Nc2cc(Nc3cccc(C(F)(F)F)c3)ncn2)c1)C1CC1` gave a remaining activity of 99.1%.
With `NCCNc1ncc(C(N)=O)c(Nc2cccc(C(F)(F)F)c2)n1` the remaining activity was 94.6%.

Series 3 — effect on: kinase activity; action: inhibitor; concentration: 1 µM
Structure (SMILES): CC(C)S(=O)(=O)c1ccc2nccc(Nc3ccc4sc(C5CCCC5)nc4c3)c2c1.Cl
It gave 72% for remaining activity (CDKL3 (Homo sapiens, UniProt Q8IVW4)).
For CAMK2G (Homo sapiens, UniProt Q13555): remaining activity read 102%.
The remaining activity was 96% (ERBB2 (Homo sapiens, UniProt P04626)).
The remaining activity was 106% (PRKG1 (Homo sapiens, UniProt Q13976)).
For PRKDC (Homo sapiens, UniProt P78527): remaining activity read 109%.
For WNK4 (Homo sapiens, UniProt Q96J92): remaining activity read 90%.
It gave 92% for remaining activity (MST1R (Homo sapiens, UniProt Q04912)).
For MERTK (Homo sapiens, UniProt Q12866): remaining activity read 98%.

Series 4 — effect on: cell-free assay; technique: competition with immobilised ligand; concentration: 1 µM
Structure (SMILES): CS(=O)(=O)c1cc(C2(NC(=O)c3cncc4c3cnn4-c3ccc(F)cc3)CC2)ccn1
It gave 73% for remaining binding (TIE1 (Homo sapiens, UniProt P35590)).
The remaining binding was 76% (CAMKK1 (Homo sapiens, UniProt Q8N5S9)).
CDK17 (Homo sapiens, UniProt Q00537) — remaining binding: 79%.
The remaining binding was 74% (DYRK1B (Homo sapiens, UniProt Q9Y463)).
It gave 93% for remaining binding (Receptor-type tyrosine-protein kinase FLT3, autoinhibited (FLT3, Homo sapiens, UniProt P36888)).
The remaining binding was 55% (FYN (Homo sapiens, UniProt P06241)).

Some of these lines once more (series 4):
CDK17 (Homo sapiens, UniProt Q00537) — remaining binding: 79%.
The remaining binding was 74% (DYRK1B (Homo sapiens, UniProt Q9Y463)).
It gave 93% for remaining binding (Receptor-type tyrosine-protein kinase FLT3, autoinhibited (FLT3, Homo sapiens, UniProt P36888)).
The remaining binding was 76% (CAMKK1 (Homo sapiens, UniProt Q8N5S9)).
